Experimental data collected from several papers.
Parts stem from different laboratories: compare values within a part only.

Block 1
Target: Histone acetyltransferase KAT6A, both winged helices, GST fusion (KAT6A, Homo sapiens, UniProt Q92794, residues 1-181)
Technique: protein binding microarray
Molecule type: double-stranded DNA, one strand shown
Matrix: in vitro
Tested at: not given
Notes: 8-mer, flanks averaged, mean of 2 arrays, mostly near background
Reference: not given
Reading: higher = stronger binding
Target sequence (chain): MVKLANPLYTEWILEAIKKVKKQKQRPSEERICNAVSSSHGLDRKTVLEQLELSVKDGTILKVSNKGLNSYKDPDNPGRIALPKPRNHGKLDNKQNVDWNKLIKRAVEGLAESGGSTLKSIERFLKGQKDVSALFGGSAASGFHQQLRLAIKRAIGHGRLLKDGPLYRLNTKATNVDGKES
Oligonucleotide	E-score
AGGGTTCA	-0.0684
CATTGCAG	-0.125
CTAGTACA	-0.0531
GTCAAACA	-0.0665
AACATACA	-0.0513
CGAACCGC	0.206
AGACACAG	-0.207
CACTGGAG	-0.165
GGAACCAC	0.063
CGAAGTAC	0.0955

Block 2
Target: Ras GTPase-activating protein-binding protein 1, full length (G3BP1, Homo sapiens, UniProt Q13283)
Chain of UniProt Q13283 (whole entry, looked up): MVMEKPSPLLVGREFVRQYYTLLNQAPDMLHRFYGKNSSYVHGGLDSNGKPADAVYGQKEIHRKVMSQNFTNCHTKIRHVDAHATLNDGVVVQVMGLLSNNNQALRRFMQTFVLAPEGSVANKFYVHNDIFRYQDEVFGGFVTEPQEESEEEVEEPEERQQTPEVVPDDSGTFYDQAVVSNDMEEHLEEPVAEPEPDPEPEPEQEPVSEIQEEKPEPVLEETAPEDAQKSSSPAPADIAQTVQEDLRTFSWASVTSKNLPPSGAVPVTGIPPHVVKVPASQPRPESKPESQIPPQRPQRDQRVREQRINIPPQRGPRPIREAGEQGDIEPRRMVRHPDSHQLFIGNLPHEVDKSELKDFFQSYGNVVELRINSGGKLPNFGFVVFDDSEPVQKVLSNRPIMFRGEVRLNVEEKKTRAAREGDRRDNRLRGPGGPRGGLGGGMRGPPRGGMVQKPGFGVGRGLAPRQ
Technique: RNA Bind-n-Seq
Molecule type: RNA
Matrix: in vitro
Tested at: 200 nM
Notes: whole 134-nt RNA, ends assumed
With: 150 mM LiCl
Reference: input library
Reading: higher = stronger binding
Each molecule: 7-deaza-guanosine replaces G
Shared flanks, not repeated: GGGAGUUCUACAGUCCGACGAUC … UGGAAUUCUCGGGUGUCAAGG
Oligonucleotide	log2 enrichment
CAAGUCCUGUGCUACACAUCGUAUGUACCGAAUCGGAAAAAGGUGGAAAAAAAGGAAAGUAUUAUGUUACGCCGUUCGGAUCUGCACUUC	-0.702
GUCCUGUGCUACACAUCGUAUGUACCGAAUCGGGUUUGGGUUUUUUUGGGUUUUUGGGAAAGUAUUAUGUUACGCCGUUCGGAUCUGCAC	0.2
CCUGUGCUACACAUCGUAUGUACCGAAUCGGGCCCCCCGGGGCCCCCCGGGGCCCCCCGGAAAGUAUUAUGUUACGCCGUUCGGAUCUGC	-1.78
GUCCUGUGCUACACAUCGUAUGUACCGAAUCGGCCCCCCGGGCCCCCCGGCCCCCCGGGAAAGUAUUAUGUUACGCCGUUCGGAUCUGCA	-1.1
UGGCCCUGGUGGCAUGCGGGGAGGAAGAGGUGGCCUCAUGGAUCGUGGUGGUCCCGGCGGAAUGUUCAGAGGUGGCCGUGGUGGAGACAG	0.16
AGUCCUGUGCUACACAUCGUAUGUACCGAAUCGGCCCCCGGGCCCCCGGCCCCCGGGGAAAGUAUUAUGUUACGCCGUUCGGAUCUGCAC	0.296

Block 3
Target: Sal-like protein 4, full length isoform A (SALL4, Homo sapiens, UniProt Q9UJQ4, residues 1-1053)
Chain of UniProt Q9UJQ4 (whole entry, looked up): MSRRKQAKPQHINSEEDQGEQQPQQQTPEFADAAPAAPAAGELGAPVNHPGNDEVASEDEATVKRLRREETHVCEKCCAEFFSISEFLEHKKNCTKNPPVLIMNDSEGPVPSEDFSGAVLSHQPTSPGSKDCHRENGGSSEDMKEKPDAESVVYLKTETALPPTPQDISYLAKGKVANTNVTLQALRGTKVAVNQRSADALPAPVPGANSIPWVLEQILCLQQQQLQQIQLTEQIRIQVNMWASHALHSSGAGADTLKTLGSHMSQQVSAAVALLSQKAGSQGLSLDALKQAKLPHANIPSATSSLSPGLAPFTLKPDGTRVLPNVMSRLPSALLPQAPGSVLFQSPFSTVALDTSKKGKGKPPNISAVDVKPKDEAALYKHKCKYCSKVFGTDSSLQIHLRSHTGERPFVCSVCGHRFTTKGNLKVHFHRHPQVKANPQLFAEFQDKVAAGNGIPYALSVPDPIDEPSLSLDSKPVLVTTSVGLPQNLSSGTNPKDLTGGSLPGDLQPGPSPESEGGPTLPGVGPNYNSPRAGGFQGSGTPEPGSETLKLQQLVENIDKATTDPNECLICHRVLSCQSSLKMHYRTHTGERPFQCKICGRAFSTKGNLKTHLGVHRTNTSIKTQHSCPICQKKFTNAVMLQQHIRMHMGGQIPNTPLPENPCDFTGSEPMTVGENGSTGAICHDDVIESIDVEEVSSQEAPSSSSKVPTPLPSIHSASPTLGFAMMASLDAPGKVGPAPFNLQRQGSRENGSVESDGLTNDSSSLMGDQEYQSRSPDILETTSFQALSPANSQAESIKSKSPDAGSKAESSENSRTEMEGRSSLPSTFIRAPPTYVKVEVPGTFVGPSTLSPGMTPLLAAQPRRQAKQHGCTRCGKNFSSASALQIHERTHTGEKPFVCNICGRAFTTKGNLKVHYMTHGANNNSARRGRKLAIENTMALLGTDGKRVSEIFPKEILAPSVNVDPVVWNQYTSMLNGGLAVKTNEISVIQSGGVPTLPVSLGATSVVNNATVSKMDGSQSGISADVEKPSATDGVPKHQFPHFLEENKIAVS
Technique: universal PBM
Molecule type: double-stranded DNA, one strand shown
Matrix: in vitro
Tested at: 600 nM
Notes: 8-mer, flanks averaged, mean of replicates
Reading: higher = stronger binding
Oligonucleotide	E-score
GGGCCTAC	-0.355
AGGCAAAG	0.0933
CCGGGTCG	-0.389
GTCGGACA	-0.124
AAAGTACG	0.14
CATCCGTC	-0.00419
ATTTCCAA	0.209
CTTTTTGC	-0.117
TGACGAAA	0.246
GTCCGGCA	-0.204
GCCCCAGA	-0.409
CAATTGGG	-0.155

Mixed results
Molecule	target	assay	test system	setting	how to read	endpoint	value
PhoQ, residues 284 288 289 292 302 303 QWQEDG	PhoP, residues 12 14 15 18 19 LHATL (Escherichia coli, UniProt P23836)	Sort-seq, item: YFP reporter	E. coli	PhoQ-PhoP variant library, with: 10 µM Mg2+	reference: high Mg2+ state, higher = stronger signaling	fold induction	8.76

Excerpt of the above (block 2):
Oligonucleotide	log2 enrichment
CAAGUCCUGUGCUACACAUCGUAUGUACCGAAUCGGAAAAAGGUGGAAAAAAAGGAAAGUAUUAUGUUACGCCGUUCGGAUCUGCACUUC	-0.702
UGGCCCUGGUGGCAUGCGGGGAGGAAGAGGUGGCCUCAUGGAUCGUGGUGGUCCCGGCGGAAUGUUCAGAGGUGGCCGUGGUGGAGACAG	0.16
GUCCUGUGCUACACAUCGUAUGUACCGAAUCGGGUUUGGGUUUUUUUGGGUUUUUGGGAAAGUAUUAUGUUACGCCGUUCGGAUCUGCAC	0.2
